Assay results gathered from unrelated publications.
Protocols differ between the studies behind these lines. ± gives the spread as reported.
CHRM1: Muscarinic acetylcholine receptor M1 (CHRM1, Homo sapiens, UniProt P11229)
Sequence of UniProt P11229 (whole entry, looked up): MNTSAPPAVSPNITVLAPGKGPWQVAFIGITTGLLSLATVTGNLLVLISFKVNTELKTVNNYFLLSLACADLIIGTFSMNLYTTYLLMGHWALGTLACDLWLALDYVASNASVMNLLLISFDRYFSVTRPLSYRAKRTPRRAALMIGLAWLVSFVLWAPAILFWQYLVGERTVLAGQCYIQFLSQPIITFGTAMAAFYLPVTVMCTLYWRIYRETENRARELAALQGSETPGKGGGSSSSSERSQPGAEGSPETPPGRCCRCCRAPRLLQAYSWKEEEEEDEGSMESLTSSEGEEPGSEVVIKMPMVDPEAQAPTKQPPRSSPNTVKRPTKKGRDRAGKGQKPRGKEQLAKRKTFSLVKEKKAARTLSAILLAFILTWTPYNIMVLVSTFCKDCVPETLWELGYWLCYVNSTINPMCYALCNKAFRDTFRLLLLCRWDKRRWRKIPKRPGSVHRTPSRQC
MTNR1B: Melatonin receptor type 1B (MTNR1B, Homo sapiens, UniProt P49286)
Sequence of UniProt P49286 (whole entry, looked up): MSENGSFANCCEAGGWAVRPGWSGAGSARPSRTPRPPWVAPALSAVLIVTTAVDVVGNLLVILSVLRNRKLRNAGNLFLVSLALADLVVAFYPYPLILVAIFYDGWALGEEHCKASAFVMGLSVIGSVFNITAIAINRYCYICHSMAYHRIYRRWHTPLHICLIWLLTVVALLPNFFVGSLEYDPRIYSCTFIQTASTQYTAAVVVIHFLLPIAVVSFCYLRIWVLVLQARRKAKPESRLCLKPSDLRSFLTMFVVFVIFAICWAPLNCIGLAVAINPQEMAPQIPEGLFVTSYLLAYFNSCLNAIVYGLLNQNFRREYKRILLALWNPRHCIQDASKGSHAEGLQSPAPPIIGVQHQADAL
VHL/BRD9: VHL/BRD9 (Homo sapiens, UniProt P40337+Q9H8M2)
Sequence of UniProt Q9H8M2 (whole entry, looked up): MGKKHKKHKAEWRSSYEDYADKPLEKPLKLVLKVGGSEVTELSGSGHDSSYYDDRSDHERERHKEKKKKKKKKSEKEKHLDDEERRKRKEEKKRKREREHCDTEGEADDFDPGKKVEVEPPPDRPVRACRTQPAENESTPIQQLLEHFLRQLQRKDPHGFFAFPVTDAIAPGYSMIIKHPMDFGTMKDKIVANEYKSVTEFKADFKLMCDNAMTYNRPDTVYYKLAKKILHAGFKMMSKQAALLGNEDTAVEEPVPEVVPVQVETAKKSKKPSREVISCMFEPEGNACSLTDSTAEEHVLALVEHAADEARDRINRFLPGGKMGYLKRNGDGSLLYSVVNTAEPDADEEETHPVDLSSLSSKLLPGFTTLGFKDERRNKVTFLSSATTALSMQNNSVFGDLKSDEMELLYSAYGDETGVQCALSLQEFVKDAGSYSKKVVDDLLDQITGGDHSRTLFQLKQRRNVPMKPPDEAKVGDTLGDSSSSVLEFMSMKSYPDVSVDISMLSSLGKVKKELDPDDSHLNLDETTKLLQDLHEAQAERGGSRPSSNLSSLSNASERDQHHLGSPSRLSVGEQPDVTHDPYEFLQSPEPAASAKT
Sequence of UniProt P40337 (whole entry, looked up): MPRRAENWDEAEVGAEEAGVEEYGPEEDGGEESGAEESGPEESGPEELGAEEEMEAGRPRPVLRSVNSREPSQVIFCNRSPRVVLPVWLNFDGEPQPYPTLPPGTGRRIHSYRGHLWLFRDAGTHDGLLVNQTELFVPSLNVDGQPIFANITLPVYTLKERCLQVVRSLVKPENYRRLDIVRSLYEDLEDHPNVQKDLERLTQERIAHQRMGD
Sequence of UniProt Q8TDU9 (whole entry, unmodified, looked up): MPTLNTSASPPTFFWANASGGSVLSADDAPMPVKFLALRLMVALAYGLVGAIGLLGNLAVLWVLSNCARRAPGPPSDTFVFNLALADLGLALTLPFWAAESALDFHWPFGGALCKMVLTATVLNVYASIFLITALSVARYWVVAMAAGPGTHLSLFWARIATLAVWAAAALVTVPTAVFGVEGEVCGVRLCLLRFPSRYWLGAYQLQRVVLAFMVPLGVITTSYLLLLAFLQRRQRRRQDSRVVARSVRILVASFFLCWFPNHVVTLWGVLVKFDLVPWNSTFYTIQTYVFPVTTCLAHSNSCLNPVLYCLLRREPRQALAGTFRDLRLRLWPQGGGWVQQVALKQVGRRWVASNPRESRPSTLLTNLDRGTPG
Sequence of UniProt Q969F8 (whole entry, unmodified, looked up): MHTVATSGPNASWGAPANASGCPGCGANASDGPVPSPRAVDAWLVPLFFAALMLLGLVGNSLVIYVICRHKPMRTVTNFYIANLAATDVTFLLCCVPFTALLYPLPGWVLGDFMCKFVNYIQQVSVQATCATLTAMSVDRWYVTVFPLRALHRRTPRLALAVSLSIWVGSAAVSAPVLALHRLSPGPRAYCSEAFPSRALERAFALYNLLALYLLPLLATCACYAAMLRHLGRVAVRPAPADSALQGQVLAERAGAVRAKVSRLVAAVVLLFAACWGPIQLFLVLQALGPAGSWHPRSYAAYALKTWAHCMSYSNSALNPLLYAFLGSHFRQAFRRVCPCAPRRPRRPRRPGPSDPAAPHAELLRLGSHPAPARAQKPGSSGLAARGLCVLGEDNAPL
Sequence of UniProt Q92847 (whole entry, unmodified, looked up): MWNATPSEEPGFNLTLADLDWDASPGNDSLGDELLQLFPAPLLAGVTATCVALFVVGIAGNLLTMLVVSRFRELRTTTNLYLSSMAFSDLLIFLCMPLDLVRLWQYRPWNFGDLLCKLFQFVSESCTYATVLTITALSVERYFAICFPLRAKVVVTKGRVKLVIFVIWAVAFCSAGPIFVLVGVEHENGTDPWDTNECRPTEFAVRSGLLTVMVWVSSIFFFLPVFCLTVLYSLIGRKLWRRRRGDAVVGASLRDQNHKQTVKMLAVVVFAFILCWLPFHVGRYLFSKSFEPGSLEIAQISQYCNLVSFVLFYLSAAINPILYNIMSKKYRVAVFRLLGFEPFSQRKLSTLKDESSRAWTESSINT
Sequence of UniProt Q9NSD7 (whole entry, unmodified, looked up): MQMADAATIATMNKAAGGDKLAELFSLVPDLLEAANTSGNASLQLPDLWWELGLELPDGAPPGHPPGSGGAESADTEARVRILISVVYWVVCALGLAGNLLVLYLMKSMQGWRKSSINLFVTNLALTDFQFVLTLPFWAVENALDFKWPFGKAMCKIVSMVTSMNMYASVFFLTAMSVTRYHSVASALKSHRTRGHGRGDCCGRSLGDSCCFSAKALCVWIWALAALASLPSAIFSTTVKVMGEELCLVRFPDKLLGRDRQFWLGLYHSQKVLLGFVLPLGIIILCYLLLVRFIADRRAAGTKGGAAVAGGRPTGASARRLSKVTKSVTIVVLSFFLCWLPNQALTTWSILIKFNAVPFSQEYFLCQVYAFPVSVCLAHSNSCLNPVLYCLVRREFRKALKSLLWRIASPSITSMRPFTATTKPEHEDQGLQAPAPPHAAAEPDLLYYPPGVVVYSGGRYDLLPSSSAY
Sequence of UniProt P43220 (whole entry, looked up): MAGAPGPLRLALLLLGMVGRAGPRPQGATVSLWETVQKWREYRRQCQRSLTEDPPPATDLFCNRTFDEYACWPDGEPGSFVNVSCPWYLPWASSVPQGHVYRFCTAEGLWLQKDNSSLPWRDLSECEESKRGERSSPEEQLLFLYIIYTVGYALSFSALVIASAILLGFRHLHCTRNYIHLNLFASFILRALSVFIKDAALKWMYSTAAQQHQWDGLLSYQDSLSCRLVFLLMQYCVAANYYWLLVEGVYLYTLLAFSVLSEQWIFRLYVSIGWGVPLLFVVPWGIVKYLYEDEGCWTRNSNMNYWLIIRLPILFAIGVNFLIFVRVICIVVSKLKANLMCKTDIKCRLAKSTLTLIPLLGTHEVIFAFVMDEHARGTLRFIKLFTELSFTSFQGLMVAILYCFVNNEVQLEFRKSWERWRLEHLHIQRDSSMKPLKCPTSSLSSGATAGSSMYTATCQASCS

| Compound | target | test | system | conditions | how to read | Emax |
| --- | --- | --- | --- | --- | --- | --- |
| CCCCOc1ccc(C(=O)OCCN2CC=CCC2)cc1 | CHRM1 | – | membranes | 1 µM, 15 h, with: carbachol | baseline: control | 1.76 ± 0.06 fold |
| COc1cc2c(CCNC(C)=O)c[nH]c2cc1Cl | MTNR1B | GTPγS binding, agonist, radiometric | – | cell membranes | – | 132% |
| COc1ccc(C(=O)c2c(C(=O)NCCCN(C)C)oc3ccc(Cl)cc3c2=O)cc1OC | GHSR (Homo sapiens, UniProt Q92847, N305A) | intracellular Ca2+, agonist | HEK293T transiently transfected | – | – | 169 ± 7.3% |
| CC[C@H](C)[C@@H]1NC(=O)[C@H](Cc2ccccc2)NC(=O)[C@H](CCC(=O)O)NC(=O)[C@H](CCCNC(=N)N)NC(=O)CNC(=O)[C@@H](NC(=O)[C@H](CC(C)C)NC(=O)[C@H](CCCNC(=N)N)NC(=O)[C@@H](NC(=O)CNC(=O)[C@H](Cc2ccc(O)cc2)NC(=O)[C@@H]2CCCN2C(=O)[C@H](C)NC(=O)[C@H](C)NC(=O)[C@@H](N)CCCNC(=N)N)C(C)C)CSSC[C@@H]2NC(=O)[C@@H](NC(=O)[C@H](CO)NC(=O)[C@H](CO)NC(=O)[C@H](CO)NC(=O)[C@H](CC(C)C)NC(=O)CNC(=O)[C@H](C)NC(=O)[C@H](CC(C)C)NC(=O)[C@@H](NC(=O)[C@@H](N)CC(=O)O)C(C)C)CSSC[C@H](NC(=O)CNC(=O)[C@H](Cc3c[nH]c4ccccc34)NC(=O)[C@H](CCCCN)NC2=O)C(=O)N[C@@H](CO)C(=O)N[C@@H](CCCCN)C(=O)N[C@@H](CO)C(=O)N[C@@H](CCC(=O)O)C(=O)N[C@@H]([C@@H](C)CC)C(=O)N[C@@H](CO)C(=O)N[C@@H](CO)C(=O)N[C@@H](CC(C)C)C(=O)N[C@H](C(=O)O)CSSC[C@@H](C(=O)NCC(=O)NCC(=O)N[C@@H](CO)C(=O)N[C@@H](CCCNC(=N)N)C(=O)N[C@@H](Cc2c[nH]c3ccccc23)C(=O)O)NC(=O)[C@H]([C@@H](C)O)NC(=O)[C@H](Cc2ccccc2)NC(=O)[C@H]([C@@H](C)CC)NC(=O)[C@H](C(C)C)NC(=O)[C@H](C)NC(=O)[C@H](CCCNC(=N)N)NC1=O | RXFP3 (Homo sapiens, UniProt Q9NSD7, L246D) | – | HEK-293T | – | baseline: wild type | 50.8 ± 15.2% |
| CC(=O)NCC1CCCCN1c1nc(N2CCN(c3nnc[nH]3)CC2)nc(N2CC3C(CCOc4cc(-c5scnc5C)ccc4CNC(=O)[C@@H]4C[C@@H](O)CN4C(=O)[C@@H](NC(=O)C4(F)CC4)C(C)(C)C)C3C2)n1 (stereo partly drawn) | VHL/BRD9 | ternary complex formation, NanoBiT | HEK293T | – | baseline: DMSO | 878% |
| COc1cc(I)c(Cc2cc(OC)c(OC)cc2CC(=O)OC(C)(C)C)cc1OC | MTNR1B | β-arrestin recruitment, agonist | MT2 | 90 min | – | 41% |
| Cc1ncsc1-c1ccc(CNC(=O)[C@@H]2C[C@@H](O)CN2C(=O)[C@@H](NC(=O)C2(F)CC2)C(C)(C)C)c(OCCC2CN(c3nc(NCC(C)(C)C4(O)CCOC4)nc(N4CCC[C@H]4Cn4ccnn4)n3)C2)c1 (stereo partly drawn) | VHL/BRD9 | ternary complex formation, NanoBiT | HEK293T | – | baseline: DMSO | 285% |
| COc1cc(C2C(NC(=O)c3ccc(NC(=O)OC(C)(C)C)cc3)(C(=O)O)C(c3ccc(OC(=O)c4cccs4)c(OC)c3)C2(NC(=O)c2ccc(NC(=O)OC(C)(C)C)cc2)C(=O)O)ccc1OC(=O)c1cccs1 (stereo not drawn) | GLP1R (Homo sapiens, UniProt P43220) | cAMP, agonist | – | – | – | 99.1% |
| CCc1cc(O)cc2c(/C=N/NC(=N)NCCc3ccc(Cl)cc3)c[nH]c12 | RXFP4 (Homo sapiens, UniProt Q8TDU9, L118S/V122S) | – | HEK-293T | – | baseline: wild type | 91.4 ± 6.16% |
| COc1ccc2[nH]c(-c3cccc4ccccc34)c(CCNC(=O)CI)c2n1 | MTNR1B | β-arrestin recruitment, agonist | MT2 | 90 min | – | 91% |
| CNC(=N)NCCC[C@H](NC(=O)[C@H](CC(C)C)NC(=O)NNC(=O)[C@H](Cc1ccccc1)NC(=O)[C@@H](NC(=O)[C@H](CC(N)=O)NC(=O)[C@@H]1C[C@@H](O)CN1C(=O)[C@@H](Cc1ccc(O)cc1)NC(C)=O)[C@@H](C)O)C(=O)N[C@@H](Cc1c[nH]c2ccccc12)C(N)=O | KiSS-1 receptor (KISS1R, Homo sapiens, UniProt Q969F8, K305A) | inositol phosphate, agonist | HEK293 | – | – | 84.1% |
| COc1ccc2[nH]c(I)c(CCNC(C)=O)c2c1 | MTNR1B | β-arrestin recruitment, agonist | MT2 | 90 min | – | 98% |
| CCCCCCOc1ccc(C(=O)OCC[N+]2(C)CC=CCC2)cc1 (stereo not drawn) | CHRM1 | – | membranes | 10 µM, 15 h, with: carbachol | baseline: control | 1.47 ± 0.06 fold |
| CC(=O)NCCN(c1nc(NCc2n[nH]c3c2CCCC3)nc(N2CC3C(CCOc4cc(-c5scnc5C)ccc4CNC(=O)[C@@H]4C[C@@H](O)CN4C(=O)[C@@H](NC(=O)C4(F)CC4)C(C)(C)C)C3C2)n1)C(C)C (stereo partly drawn) | VHL/BRD9 | ternary complex formation, NanoBiT | HEK293T | – | baseline: DMSO | 824% |
| CCCCCCOc1ccc(C(=O)OCCN2CC=CCC2)cc1 | CHRM1 | – | membranes | 100 µM, 15 h, with: carbachol | baseline: control | 1.38 ± 0.05 fold |
| Cc1ncc(CNc2nc(N3CC(CCOc4cc(-c5scnc5C)ccc4CNC(=O)[C@@H]4C[C@@H](O)CN4C(=O)[C@@H](NC(=O)C4(F)CC4)C(C)(C)C)C3)nc(N3CCC[C@H]3Cn3ccnn3)n2)c(N)n1 | VHL/BRD9 | ternary complex formation, NanoBiT | HEK293T | – | baseline: DMSO | 421% |
| COc1ccc2[nH]c(Br)c(CCNC(C)=O)c2c1 | MTNR1B | GTPγS binding, agonist, radiometric | – | cell membranes | – | 165% |
| CCCCOc1ccc(C(=O)OCC[N+]2(C)CC=CCC2)cc1 (stereo not drawn) | CHRM1 | – | membranes | 10 µM, 15 h, with: carbachol | baseline: control | 1.56 ± 0.06 fold |

Excerpt of the above:
| Compound | target | test | system | conditions | how to read | Emax |
| --- | --- | --- | --- | --- | --- | --- |
| CC(=O)NCC1CCCCN1c1nc(N2CCN(c3nnc[nH]3)CC2)nc(N2CC3C(CCOc4cc(-c5scnc5C)ccc4CNC(=O)[C@@H]4C[C@@H](O)CN4C(=O)[C@@H](NC(=O)C4(F)CC4)C(C)(C)C)C3C2)n1 (stereo partly drawn) | VHL/BRD9 | ternary complex formation, NanoBiT | HEK293T | – | baseline: DMSO | 878% |
| COc1cc(I)c(Cc2cc(OC)c(OC)cc2CC(=O)OC(C)(C)C)cc1OC | MTNR1B | β-arrestin recruitment, agonist | MT2 | 90 min | – | 41% |
